Experimental data pooled from the literature.
Parts stem from different laboratories: compare values within a part only. Changes are numbered by the printed parent chain.

Series 1
Target: Interferon regulatory factor 3, full length, phosphomimetic (IRF3, Homo sapiens, UniProt Q14653, residues 1-427, S386D/S396D/S398D/S402D/T404D/S405D)
Sequence of UniProt Q14653 (whole entry, unmodified, looked up): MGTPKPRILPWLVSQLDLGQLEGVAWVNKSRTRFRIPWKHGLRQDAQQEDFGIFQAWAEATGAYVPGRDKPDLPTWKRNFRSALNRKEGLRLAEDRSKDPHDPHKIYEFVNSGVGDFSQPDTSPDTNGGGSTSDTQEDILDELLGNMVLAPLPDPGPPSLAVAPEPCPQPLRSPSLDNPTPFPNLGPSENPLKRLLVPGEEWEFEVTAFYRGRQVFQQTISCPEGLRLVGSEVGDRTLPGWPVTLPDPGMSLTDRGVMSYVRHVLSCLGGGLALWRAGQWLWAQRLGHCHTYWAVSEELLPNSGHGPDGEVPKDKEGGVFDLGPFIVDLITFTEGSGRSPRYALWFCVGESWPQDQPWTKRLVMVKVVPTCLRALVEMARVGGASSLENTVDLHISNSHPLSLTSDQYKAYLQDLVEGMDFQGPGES
Technique: protein-binding microarray
Molecule type: double-stranded DNA, one strand shown
Matrix: in vitro
Concentration: 2540 nM top
Notes: 60-bp whole probe
Added: salmon DNA 0.4 mg/ml
Baseline: random background probes
Direction: higher = stronger binding
Measurement: fitted relative affinity
Constant ends, left off below: GCCTAGCAC … GTCTTGATTCGCTTGACGCTGCTG
TGATAAATCTTTGTTGGAGGGGTGCTA: -0.525 z-score
AGGTGGGAGGGGACAGTGGTGTGCTAG: -0.834 z-score
GACGATATGAGTATCGAGACGTGCTAG: 0.0865 z-score
TTAGATTTCAGACTGAATTAGTGCTAG: 0.914 z-score
TCACCTTTCCAAATACCACTGTGCTAG: 4.6 z-score
TACTTTCTGAATGCTCCCCCTGTGCTA: 3.59 z-score
TTAGGTTTCGGACTGGGCTAGTGCTAG: 4.21 z-score
GACGATATCGGGACTAGAGACGTGCTA: 0.191 z-score
GACGGTCTCGTTCTCGGGACGTGCTAG: 1.83 z-score
GACGGTAGCGGTCTCGGGACGTGCTAG: 0.0552 z-score
GACGGTTTCGGCTCCGGGACGTGCTAG: 3.19 z-score
TTAGGTATCGGTTTCGGTTCGTGCTAG: 9.42 z-score
TTGGGACTGGGACTGGGTTAGTGCTAG: -1.1 z-score
TTAGGTCTCATTTTCCTTTAGTGCTAG: 3.56 z-score
AACAGTTCATGTTTTGGAAAGTGCTAG: 0.894 z-score
TTAGGTATCGGGTTTCGGTAAGTGCTA: 3.56 z-score
TTAGATTTCAGTATCGTTTAGTGCTAG: 2.84 z-score
GACGGTATCGACTATCGGGAGGTGCTA: 0.644 z-score
TCAGTTTTCATTTTCTGACTGTGCTAG: 5.79 z-score
CTTGCTCTGTGCATAGGTCTGTGCTAG: 0.0421 z-score
TTAGATTTCGGTCTCGATTAGTGCTAG: 4.62 z-score
TCAGCATTCCCTTTCTCACTGTGCTAG: 3.97 z-score
GACGGTATTGGTTTCGGGACGTGCTAG: 3.86 z-score

Series 2
Target: ABI1, truncated, D143A, DHFR fusion (Arabidopsis thaliana)
Technique: DHFR PCA, deep sequencing
Matrix: yeast
Notes: methotrexate growth selection, single substitutions
Added: (+)-ABA 17 µM
Baseline: wild-type fitted maximum
Direction: higher = stronger binding
Measurement: relative binding score
Parent: PYL1, truncated, DHFR fusion (Arabidopsis thaliana); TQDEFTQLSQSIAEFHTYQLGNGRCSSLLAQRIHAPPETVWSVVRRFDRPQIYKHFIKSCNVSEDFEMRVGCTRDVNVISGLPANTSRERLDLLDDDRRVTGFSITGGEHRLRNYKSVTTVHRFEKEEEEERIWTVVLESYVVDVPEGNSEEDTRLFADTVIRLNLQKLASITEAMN; partner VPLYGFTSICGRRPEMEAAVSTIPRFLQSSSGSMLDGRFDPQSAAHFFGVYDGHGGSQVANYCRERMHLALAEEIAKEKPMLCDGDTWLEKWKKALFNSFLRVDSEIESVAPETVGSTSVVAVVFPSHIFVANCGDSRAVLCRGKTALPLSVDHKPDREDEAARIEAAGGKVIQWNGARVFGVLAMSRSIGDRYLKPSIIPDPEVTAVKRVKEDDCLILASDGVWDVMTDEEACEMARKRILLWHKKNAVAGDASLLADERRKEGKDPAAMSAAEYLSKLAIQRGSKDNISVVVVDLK
E152L: 70.5%
R24P: 12%
S150G: 47.3%
V136P: 8.44%
E109S: 81.8%
R155T: 72.5%
T6H: 88.5%
V76Y: 48.1%
V142F: 30.8%
L8A: 32%
D159F: -7.49%
E131M: 93.4%
V40I: 44.9%
G148F: 31.5%
I52F: 73%
S27C: 32.1%
S9R: 85.4%
V43W: 6.5%
V44N: -20.5%
T160Y: 76.6%
H122M: -1.53%
S9D: 78.3%
L91W: -6.97%

Series 3
Target: Ras GTPase-activating protein-binding protein 1, RRM domain (G3BP1, Homo sapiens, UniProt Q13283)
Sequence of UniProt Q13283 (whole entry, looked up): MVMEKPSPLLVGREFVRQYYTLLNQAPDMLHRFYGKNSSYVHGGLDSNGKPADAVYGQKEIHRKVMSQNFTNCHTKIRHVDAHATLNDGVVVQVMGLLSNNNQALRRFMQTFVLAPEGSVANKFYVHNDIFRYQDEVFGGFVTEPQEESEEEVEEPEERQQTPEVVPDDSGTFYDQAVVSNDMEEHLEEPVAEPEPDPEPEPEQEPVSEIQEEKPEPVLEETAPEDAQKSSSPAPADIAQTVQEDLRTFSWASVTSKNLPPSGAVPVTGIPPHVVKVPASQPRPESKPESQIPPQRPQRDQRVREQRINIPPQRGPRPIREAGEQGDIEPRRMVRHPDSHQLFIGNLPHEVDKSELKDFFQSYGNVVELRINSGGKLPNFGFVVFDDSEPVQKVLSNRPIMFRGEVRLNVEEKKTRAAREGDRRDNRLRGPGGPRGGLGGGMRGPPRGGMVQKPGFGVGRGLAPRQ
Technique: RNA Bind-n-Seq
Molecule type: RNA
Matrix: in vitro
Concentration: 1 µM
Notes: whole 134-nt RNA, ends assumed
Added: 150 mM KCl
Baseline: input library
Direction: higher = stronger binding
Measurement: log2 enrichment
Constant ends, left off below: GGGAGUUCUACAGUCCGACGAUC … UGGAAUUCUCGGGUGUCAAGG
CAAGUCCUGUGCUACACAUCGUAUGUACCGAAUCGGGCCCGGGGCCCGGGCCCGGGAAAGUAUUAUGUUACGCCGUUCGGAUCUGCACUU: -0.775
UGGGAGGUGGAUUUUGUUUAUUUUUUUAGCUCAUUUCCAGGGGUGGGAGUUUUUUUUUAAUAUGUGUCAUGAAUAAAGUUGUUUUUGAAA: 1.65
GUCCUGUGCUACACAUCGUAUGUACCGAAUCGGGAAAAAAAGGGAAAGGGUUUUUGGGAAAGUAUUAUGUUACGCCGUUCGGAUCUGCAC: 0.235
UAACUUUAGAGGAGGAUCUGAUGGAUAUGGCAGUGGACGUGGAUUUGGAGAUGGCUAUAAUGGGUAUGGAGGAGGACCUGGAGGUGGCAA: -0.685
AGUCCUGUGCUACACAUCGUAUGUACCGAAUCGGGGUUUUUGGGGUUUGGGGAGGGGAAAGUAUUAUGUUACGCCGUUCGGAUCUGCACU: 1.3
GUCCUGUGCUACACAUCGUAUGUACCGAAUCGGGGAGGGGUUUGGGGUUUUUUUGGGGAAAGUAUUAUGUUACGCCGUUCGGAUCUGCAC: 1.1
CACAGACAACACGCACCCACUCAGACACAGAGGGAAGGGGUUGGGAUGGGGACAGGGUGCACAGCAGGGCGGGGUAGGACCCCAGCCCCU: 0.0561
UGGUUCUGGCAUUUAUGACCCUUGUGAAAAAGAAGCCACUGAUGCUAUUGGGCAUCUAGACAGACAGCAACGGGAAGAUAUCACACAGAG: -0.14
UCAGAGGAAUAUCCUUGACUUCCCCCAGCAUGUUUCCCCCUCCAAGGACAUCCGGACAGCCAGCACAGAGGCCGACAAGAAGCUCUCUGA: -0.0913
GCAGGAAGUAAAAACAAAUGGAAAUGCUUCGGAUAGUCGCAGGGGUGGGGGUUGCUAAGGAAAGGGUGGGAUGGGAGUGGGUAAAGAGUU: 0.784
CACAGACAACUCGCACCCACACAGACACAGAGGGAAGGGGUUGGGAUGGGGACAGGGUGCACAGCAGGGCGGGGUAGGACCCCAGCCCCU: 0.161
CUGUGCUACACAUCGUAUGUACCGAAUCAAACCCCCCCAAACCCCCCCAAACCCCCCCAAAAAAGUAUUAUGUUACGCCGUUCGGAUCUG: -0.309
UGGCCCUGGUGGCAUGCGGGGAGGAAGAGGUGGCCUCAUGGAUCGUGGUGGUCCCGGUGGAAUGUUCAGAGGUCGCCGUGGUGGAGACAG: 1.58
ACCAUGCAGGUGGGCAUCUUUGGGAAGUGGGGCAAGGGGGGGAUAGGGAGGGGGGUAACACUGUGGGAACAGGUGGUCCCAGGUCGUUUC: 1.3

Series 4
Target: ATF5, bZIP domain (human)
Technique: DHFR protein complementation
Matrix: yeast
Notes: single substitutions, most at no-binding floor
Baseline: wild-type JUN-FOS pair
Direction: higher = stronger binding
Measurement: binding fitness
Parent: JUN, bZIP domain (human); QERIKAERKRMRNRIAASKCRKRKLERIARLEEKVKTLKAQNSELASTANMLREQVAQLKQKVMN; partner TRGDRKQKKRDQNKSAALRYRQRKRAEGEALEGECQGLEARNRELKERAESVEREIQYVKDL
R30Q: -1.53 natural log
E54Q: -1.44 natural log
Q41W: -1.49 natural log
A57T: -1.42 natural log
E54V: -1.41 natural log
Q55R: -1.33 natural log
K34M: -1.31 natural log
K39S: -1.5 natural log
A46F: -1.58 natural log
R30K: -1.38 natural log
S43G: -1.4 natural log
I28N: -1.45 natural log
L38W: -1.53 natural log
T37M: -1.56 natural log
L31V: -1.49 natural log
E54M: -1.49 natural log
L52N: -1.39 natural log
K34S: -1.55 natural log
V56W: -1.41 natural log
V56T: -1.57 natural log
A40Q: -1.21 natural log

Series 5
Target: CCNF, cyclin fold, Cln2 fusion (human)
Technique: yeast growth competition, sequencing
Matrix: yeast
Notes: weak parent motif
Baseline: not given
Direction: higher = stronger binding
Measurement: normalised enrichment score
Parent: RP1L1 docking peptide (human); TLGLGPLSFTLED; partner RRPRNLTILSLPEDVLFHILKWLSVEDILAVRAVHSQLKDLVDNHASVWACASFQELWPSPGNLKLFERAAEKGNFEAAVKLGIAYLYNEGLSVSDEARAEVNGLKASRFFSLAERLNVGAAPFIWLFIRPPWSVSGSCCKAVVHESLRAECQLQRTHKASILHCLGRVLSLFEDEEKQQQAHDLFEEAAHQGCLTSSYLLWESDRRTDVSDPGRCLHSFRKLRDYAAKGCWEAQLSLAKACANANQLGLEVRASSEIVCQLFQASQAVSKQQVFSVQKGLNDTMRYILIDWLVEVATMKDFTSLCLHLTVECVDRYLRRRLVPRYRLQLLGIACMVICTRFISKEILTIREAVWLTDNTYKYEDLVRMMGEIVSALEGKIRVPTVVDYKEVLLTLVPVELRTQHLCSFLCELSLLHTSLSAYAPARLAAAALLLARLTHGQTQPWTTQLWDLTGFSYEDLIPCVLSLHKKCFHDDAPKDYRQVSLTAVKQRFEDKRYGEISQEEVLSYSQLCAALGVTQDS
TLGLGALSFTLED [P6A]: -0.774
TLGLGPLAFTLED [S8A]: -0.531
TLGLGPLSFTLAD [E12A]: -0.53
TLGLAPLSFTLED [G5A]: -0.697
TLGLGPLSFTLEA [D13A]: -0.313
TLGLGPASFTLED [L7A]: -0.839
TLGLGPLSFALED [T10A]: -0.478
